Results from different studies.
Target: Serine/threonine-protein kinase TAO1 (TAOK1, Homo sapiens, UniProt Q7L7X3)

CN1CCN(Cc2ccc(-c3ccc(CO[C@H]4CCC[C@@H]4NC(=O)c4cc(-c5cnn(C)c5)cnc4N)cc3)cc2)CC1  inhibition (enzyme activity, inhibitor; 0.1 µM): 1%
Nc1ncc(-c2cc(-c3cnn(CC(F)(F)F)c3)ncc2F)nc1C(=O)NC1CNCC(F)C1 (centres unmarked)  remaining activity (enzyme activity; 1 µM; baseline: DMSO control): 92.6%
C=CC(=O)N1Cc2nc(-c3cc(-c4cc(Cl)cnc4Cl)c(F)cc3F)n(-c3ccncn3)c2C1  inhibition (cell-free assay, inhibitor; 1 µM): 0.7%
COc1ccc(O)cc1-c1c[nH]c2ncc(-c3cncc(C(=O)N(C)C)c3)cc12  inhibition (binding, competition with immobilised ligand; 0.2 µM): 11.2%
Nc1ncc2c(n1)-c1c([nH]c3ccc(C4=CCOCC4)cc13)CCC2  remaining binding (binding, competition with immobilised ligand; 1 µM): 100%
COc1c(OCCCN2CCOCC2)ccc2c1N=C(NC(=O)c1cnc(N)nc1)N1CCN=C21  remaining activity (kinase activity, inhibitor; 1 µM; baseline: untreated control): 116%
NC(=O)C[C@H]1CCc2sc3ncnc(O[C@H]4CC[C@H](N5CCOCC5)CC4)c3c21  inhibition (enzyme activity, inhibitor; 10 µM): -2%
CN1CC[C@@H](COc2cnc(C#N)cc2-c2ccn3nc(NC(=O)C4CC4)cc3c2)C1  inhibition (enzyme activity, inhibitor; 1 µM): 8%
CC(C)=CC1OC(C)(C)C2C=C3C(=O)C(Cl)=CC(O)C3C3C(O)C4OC4C(=O)C132 (centres unmarked)  remaining binding (cell-free assay, competition with immobilised ligand; 10 µM): 90%
CCn1cc(C(=O)O)c(=O)c2c(N)c(F)c(NC3CCCCC3)cc21  inhibition (kinase activity; 0.1 µM, with: ATP at Km): 6.5%
O=C(Cc1ccc(OCc2ccccc2)cc1)NC1(C(=O)O)CCN(C(=O)c2ccc(-c3cccc(Cl)c3)cc2)CC1  activity vs control (enzyme activity, inhibitor; 10 µM): 63%
COc1cc(Nc2nccc(-c3cnn4nc(OC)ccc34)n2)cc(C(F)(F)F)c1  remaining binding (binding, competition with immobilised ligand; 1 µM): 79%
Cc1ccc(-c2c(/C=C(\C#N)C(=O)NC(C)C)n(CCCO)c3ncnc(N)c23)cc1  remaining binding (cell-free assay, competition with immobilised ligand; 1 µM): 100%
CNC1C[S+]2CC[S+]3CC[S+](C1)[Ru-4]321([N]=C=S)[n]2c3ccc(OC)cc3c3c4c(c5cc(F)c[n+]1c5c32)C(=O)NC4=O (centres unmarked)  remaining binding (KinomeScan; 0.1 µM; baseline: untreated): 84%

For quick reference, copied from above:
COc1c(OCCCN2CCOCC2)ccc2c1N=C(NC(=O)c1cnc(N)nc1)N1CCN=C21  remaining activity (kinase activity, inhibitor; 1 µM; baseline: untreated control): 116%
CN1CC[C@@H](COc2cnc(C#N)cc2-c2ccn3nc(NC(=O)C4CC4)cc3c2)C1  inhibition (enzyme activity, inhibitor; 1 µM): 8%
